Experimental data collected from several papers.
Every numbered part comes from another study and shows a few of its results, in no order.
Sequence of UniProt P42336 (whole entry, unmodified, looked up): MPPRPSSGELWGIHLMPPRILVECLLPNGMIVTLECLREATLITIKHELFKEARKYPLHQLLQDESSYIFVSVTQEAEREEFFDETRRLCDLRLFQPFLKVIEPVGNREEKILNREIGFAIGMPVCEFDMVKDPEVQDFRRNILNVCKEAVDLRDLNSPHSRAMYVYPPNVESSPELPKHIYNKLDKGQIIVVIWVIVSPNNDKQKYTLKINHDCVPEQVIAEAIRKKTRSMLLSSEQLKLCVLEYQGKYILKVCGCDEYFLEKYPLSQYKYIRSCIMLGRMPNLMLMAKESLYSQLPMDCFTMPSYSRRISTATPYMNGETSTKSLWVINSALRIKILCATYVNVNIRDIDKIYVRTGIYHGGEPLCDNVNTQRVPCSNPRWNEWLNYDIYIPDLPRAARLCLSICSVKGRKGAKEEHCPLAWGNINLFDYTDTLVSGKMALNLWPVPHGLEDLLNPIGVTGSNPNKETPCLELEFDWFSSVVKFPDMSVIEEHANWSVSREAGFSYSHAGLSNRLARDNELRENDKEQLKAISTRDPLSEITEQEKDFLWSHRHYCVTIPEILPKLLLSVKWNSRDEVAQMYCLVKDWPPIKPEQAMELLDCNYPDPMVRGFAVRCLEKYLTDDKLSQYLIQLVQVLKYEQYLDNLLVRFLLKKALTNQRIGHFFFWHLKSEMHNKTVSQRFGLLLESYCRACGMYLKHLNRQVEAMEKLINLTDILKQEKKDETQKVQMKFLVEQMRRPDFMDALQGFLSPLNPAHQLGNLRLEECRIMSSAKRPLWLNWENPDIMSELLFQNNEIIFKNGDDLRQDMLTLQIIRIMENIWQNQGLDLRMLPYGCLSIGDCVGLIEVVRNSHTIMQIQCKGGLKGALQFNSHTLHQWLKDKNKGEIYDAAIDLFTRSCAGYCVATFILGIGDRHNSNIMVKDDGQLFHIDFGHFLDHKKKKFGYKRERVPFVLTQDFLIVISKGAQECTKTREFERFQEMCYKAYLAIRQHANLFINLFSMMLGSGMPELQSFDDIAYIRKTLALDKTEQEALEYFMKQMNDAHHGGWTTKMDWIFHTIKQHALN
Sequence of UniProt Q9UQB9 (whole entry, looked up): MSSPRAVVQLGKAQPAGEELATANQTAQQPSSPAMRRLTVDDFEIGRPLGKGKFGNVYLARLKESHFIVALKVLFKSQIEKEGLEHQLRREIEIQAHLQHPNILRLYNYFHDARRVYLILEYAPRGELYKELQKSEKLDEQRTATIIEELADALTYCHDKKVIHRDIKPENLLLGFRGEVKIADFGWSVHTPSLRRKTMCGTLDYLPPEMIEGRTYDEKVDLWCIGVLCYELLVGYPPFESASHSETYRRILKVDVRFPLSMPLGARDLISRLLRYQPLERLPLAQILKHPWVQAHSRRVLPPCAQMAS
Sequence of UniProt Q96SB4 (whole entry, looked up): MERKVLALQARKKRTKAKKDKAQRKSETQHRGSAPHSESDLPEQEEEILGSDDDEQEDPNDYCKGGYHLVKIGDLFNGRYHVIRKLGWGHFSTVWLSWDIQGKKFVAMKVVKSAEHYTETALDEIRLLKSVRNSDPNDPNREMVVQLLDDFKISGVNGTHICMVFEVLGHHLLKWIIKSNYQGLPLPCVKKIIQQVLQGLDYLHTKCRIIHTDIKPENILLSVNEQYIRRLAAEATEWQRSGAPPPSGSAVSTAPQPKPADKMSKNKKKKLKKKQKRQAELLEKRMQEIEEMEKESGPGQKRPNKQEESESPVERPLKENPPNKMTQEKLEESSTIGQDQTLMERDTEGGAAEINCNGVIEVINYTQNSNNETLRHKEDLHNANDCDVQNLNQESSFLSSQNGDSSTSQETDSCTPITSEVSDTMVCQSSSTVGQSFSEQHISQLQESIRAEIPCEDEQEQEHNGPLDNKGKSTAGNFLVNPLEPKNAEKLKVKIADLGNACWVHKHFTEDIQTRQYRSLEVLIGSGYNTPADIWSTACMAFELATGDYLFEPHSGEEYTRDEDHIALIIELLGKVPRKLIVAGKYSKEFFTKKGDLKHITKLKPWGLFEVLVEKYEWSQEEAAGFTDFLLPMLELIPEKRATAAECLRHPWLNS
Sequence of UniProt Q8N752 (whole entry, looked up): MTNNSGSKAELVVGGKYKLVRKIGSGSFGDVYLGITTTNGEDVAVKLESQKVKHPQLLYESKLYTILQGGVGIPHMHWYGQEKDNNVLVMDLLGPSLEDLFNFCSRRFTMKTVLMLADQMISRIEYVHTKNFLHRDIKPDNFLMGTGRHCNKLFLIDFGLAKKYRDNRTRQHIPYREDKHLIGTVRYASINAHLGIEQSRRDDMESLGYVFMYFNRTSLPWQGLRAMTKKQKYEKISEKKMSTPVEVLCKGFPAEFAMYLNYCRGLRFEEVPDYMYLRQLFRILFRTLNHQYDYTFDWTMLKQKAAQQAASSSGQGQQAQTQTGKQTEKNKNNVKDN
Sequence of UniProt Q6ZN16 (whole entry, looked up): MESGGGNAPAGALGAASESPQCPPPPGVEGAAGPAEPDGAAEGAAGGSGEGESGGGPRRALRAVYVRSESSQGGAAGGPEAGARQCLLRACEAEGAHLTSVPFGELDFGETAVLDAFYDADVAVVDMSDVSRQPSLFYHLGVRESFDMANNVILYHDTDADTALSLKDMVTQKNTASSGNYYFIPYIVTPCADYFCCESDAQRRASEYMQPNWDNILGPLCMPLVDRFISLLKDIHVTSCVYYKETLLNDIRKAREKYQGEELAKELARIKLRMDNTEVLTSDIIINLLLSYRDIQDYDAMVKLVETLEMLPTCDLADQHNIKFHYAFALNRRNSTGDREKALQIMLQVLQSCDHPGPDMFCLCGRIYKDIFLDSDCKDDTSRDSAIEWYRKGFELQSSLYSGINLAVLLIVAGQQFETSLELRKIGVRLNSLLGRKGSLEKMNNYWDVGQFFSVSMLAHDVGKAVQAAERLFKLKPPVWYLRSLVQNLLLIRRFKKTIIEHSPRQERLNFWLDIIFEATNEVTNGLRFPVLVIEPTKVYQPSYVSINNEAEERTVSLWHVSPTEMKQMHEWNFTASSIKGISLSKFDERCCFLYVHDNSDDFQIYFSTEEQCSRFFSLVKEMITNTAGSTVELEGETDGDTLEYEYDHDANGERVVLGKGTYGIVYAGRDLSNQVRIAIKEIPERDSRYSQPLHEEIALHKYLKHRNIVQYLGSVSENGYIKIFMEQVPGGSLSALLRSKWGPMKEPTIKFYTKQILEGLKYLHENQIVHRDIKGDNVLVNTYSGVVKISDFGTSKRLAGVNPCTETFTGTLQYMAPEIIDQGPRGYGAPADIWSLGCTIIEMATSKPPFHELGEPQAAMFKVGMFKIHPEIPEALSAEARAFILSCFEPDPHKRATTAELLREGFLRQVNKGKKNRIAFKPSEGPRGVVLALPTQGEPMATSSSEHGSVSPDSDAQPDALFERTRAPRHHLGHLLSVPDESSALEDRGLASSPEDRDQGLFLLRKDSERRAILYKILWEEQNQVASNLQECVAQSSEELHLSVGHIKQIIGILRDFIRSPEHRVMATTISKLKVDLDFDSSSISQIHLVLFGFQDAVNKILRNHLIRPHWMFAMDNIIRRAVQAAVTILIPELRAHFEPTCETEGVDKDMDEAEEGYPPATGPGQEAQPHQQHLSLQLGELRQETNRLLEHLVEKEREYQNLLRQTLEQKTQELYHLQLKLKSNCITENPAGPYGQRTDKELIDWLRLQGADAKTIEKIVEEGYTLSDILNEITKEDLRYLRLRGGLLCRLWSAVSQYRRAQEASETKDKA
Sequence of UniProt Q15831 (whole entry, looked up): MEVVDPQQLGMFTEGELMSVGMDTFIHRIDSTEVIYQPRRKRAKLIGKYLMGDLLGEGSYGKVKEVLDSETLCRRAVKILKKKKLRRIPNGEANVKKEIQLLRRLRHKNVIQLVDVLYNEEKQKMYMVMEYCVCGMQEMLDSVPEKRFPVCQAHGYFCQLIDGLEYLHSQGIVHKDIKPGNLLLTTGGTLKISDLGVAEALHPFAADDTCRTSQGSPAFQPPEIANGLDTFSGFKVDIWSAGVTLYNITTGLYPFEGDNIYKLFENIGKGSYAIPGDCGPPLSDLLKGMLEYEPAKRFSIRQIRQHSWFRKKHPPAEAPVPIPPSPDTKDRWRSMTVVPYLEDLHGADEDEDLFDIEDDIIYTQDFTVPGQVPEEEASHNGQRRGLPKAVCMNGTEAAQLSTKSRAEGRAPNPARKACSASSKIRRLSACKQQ

Set 1 — read-out: RNA clamping; technique: fluorescence polarization; tested at: concentration not given; together with: FAM-labelled poly r(AG)8 RNA
Target: Eukaryotic initiation factor 4A-III (Homo sapiens, UniProt P38919)
Sequence of UniProt P38919 (whole entry, looked up): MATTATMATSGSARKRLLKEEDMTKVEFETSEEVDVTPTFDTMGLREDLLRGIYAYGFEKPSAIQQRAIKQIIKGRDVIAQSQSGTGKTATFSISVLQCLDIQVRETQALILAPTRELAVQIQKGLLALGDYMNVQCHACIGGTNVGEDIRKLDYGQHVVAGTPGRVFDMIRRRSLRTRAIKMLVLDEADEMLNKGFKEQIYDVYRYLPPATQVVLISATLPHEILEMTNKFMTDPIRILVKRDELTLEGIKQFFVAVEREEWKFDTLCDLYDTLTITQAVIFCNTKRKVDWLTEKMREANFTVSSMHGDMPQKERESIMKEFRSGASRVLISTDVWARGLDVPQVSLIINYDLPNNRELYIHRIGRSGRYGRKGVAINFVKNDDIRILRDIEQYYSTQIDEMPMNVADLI
Compound | fluorescence polarization change
COC(=O)[C@H]1[C@@H](O)[C@@]2(O)c3c(OC)cc(OCc4ccccc4)cc3O[C@@]2(c2ccc(OC)cc2)[C@@H]1c1ccccc1 | 0.7 mP
COC(=O)[C@@H]1[C@@H](c2ccccc2)[C@]2(c3ccc(OC)cc3)Oc3cc(OC)cc(OC)c3[C@@]23OC(c2ccccc2Cl)=N[C@@]13O | -1.7 mP
COC(=O)[C@H]1[C@@H](O)[C@@]2(O)c3c(F)cccc3N(C)[C@@]2(c2ccc(OC)cc2)[C@@H]1c1ccccc1 | -0.6 mP
C#CCOc1nc(-c2ccccc2)nc2c1[C@@H](c1ccccc1)[C@]1(c3ccc(OC)cc3)Oc3cc(OCC(=O)OCC)cc(OC)c3[C@]21OCC(=O)OCC | 11.7 mP
COC(=O)[C@@H]1[C@@H](c2ccccc2)[C@]2(c3ccc(OC)cc3)Oc3cc(OC)cc(OC)c3[C@@]23OC(Cc2ccccc2)=N[C@@]13O | 8.8 mP
C#CCN[C@@]12C(=O)[C@H](C(=O)OC)[C@@H](c3ccccc3)[C@]1(c1ccc(OC)cc1)Oc1cc(OC)cc(OC)c12 | 5.6 mP

Set 2 — read-out: enzyme activity; mode: inhibitor; tested at: 10 µM
Target: Calcium/calmodulin-dependent protein kinase type II subunit alpha (CAMK2A, Homo sapiens, UniProt Q9UQM7)
Sequence of UniProt Q9UQM7 (whole entry, looked up): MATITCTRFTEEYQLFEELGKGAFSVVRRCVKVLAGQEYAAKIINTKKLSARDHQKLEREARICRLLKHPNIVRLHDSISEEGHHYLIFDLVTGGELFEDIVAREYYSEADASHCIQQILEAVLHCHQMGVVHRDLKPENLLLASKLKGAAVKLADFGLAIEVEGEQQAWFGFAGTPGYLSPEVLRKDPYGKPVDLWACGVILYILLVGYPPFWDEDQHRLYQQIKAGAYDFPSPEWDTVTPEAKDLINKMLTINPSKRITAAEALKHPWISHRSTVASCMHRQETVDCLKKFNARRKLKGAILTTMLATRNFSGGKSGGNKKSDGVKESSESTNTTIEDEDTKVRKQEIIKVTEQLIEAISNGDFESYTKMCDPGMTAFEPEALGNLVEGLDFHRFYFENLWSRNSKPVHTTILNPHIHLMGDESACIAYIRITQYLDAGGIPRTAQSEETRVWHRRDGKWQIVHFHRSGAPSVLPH
SMILES | inhibition
COc1cc(-c2cc(=O)c3c(O)cc(O)cc3o2)ccc1O | -17%
Cc1ccc2c(Cl)cc(Cl)c(O)c2n1 | -8%
O=C(/C=C/c1ccc(O)c(O)c1)N[C@@H](Cc1ccc(O)c(O)c1)C(=O)O | 11%
CC(C)=CCC[C@@](C)(O)[C@H]1CC[C@]2(C)[C@@H]1[C@H](O)C[C@@H]1[C@@]3(C)CC[C@H](O)C(C)(C)[C@@H]3CC[C@]12C | -9%
C[C@@H]1O[C@@H](O[C@H]2[C@H](OC(=O)[C@]34CCC(C)(C)C[C@H]3C3=CC[C@@H]5[C@@]6(C)C[C@H](O)[C@H](O[C@@H]7O[C@H](CO)[C@@H](O)[C@H](O)[C@H]7O)[C@@](C)(CO)[C@@H]6CC[C@@]5(C)[C@]3(C)CC4)O[C@H](CO)[C@@H](O)[C@@H]2O)[C@H](O)[C@H](O)[C@H]1O[C@@H]1OC[C@@H](O)[C@H](O)[C@H]1O | -20%
COc1cc([C@H]2OC[C@H]3[C@@H]2CO[C@@H]3c2ccc(O[C@@H]3O[C@H](CO)[C@@H](O)[C@H](O)[C@H]3O)c(OC)c2)ccc1O | 8%

Set 3 — tested at: 50 µM
Target: Bromodomain-containing protein 4, BD1 (BRD4, Homo sapiens, UniProt O60885)
Structure (SMILES) | inhibition
C#Cc1cccc(Nc2ncnc3cc(OCCOC)c(OCCOC)cc23)c1 | -5.2%
CC(C)(C)c1cc(NC(=O)Nc2ccc(-c3cn4c(n3)sc3cc(OCCN5CCOCC5)ccc34)cc2)no1 | 57.6%
Clc1ccc(Nc2nnc(Cc3ccncc3)c3ccccc23)cc1 | 20.6%
C=CC(=O)Nc1cc2c(Nc3ccc(F)c(Cl)c3)ncnc2cc1OCCCN1CCOCC1 | -13.8%
CC1(COc2ccc3c(c2)ncn3-c2ccc3cccc(N4CCC(N)CC4)c3n2)COC1 | 10.9%
CN1CCC(Nc2ncc3ncnc(Nc4ccc(F)c(Cl)c4)c3n2)CC1 | -2.75%

Set 4 — tested at: 1 µM
SMILES: NS(=O)(=O)c1cc(NC(=O)Cc2ccccc2)ccc1Oc1cccc(Cl)c1
target | assay | remaining binding [%]
Mitogen-activated protein kinase kinase kinase kinase 2 (MAP4K2, Homo sapiens, UniProt Q12851) | cell-free assay, competition with immobilised ligand | 84
Mitogen-activated protein kinase kinase kinase 19 (MAP3K19, Homo sapiens, UniProt Q56UN5) | cell-free assay, competition with immobilised ligand | 78
Mitogen-activated protein kinase kinase kinase 15 (MAP3K15, Homo sapiens, UniProt Q6ZN16) | cell-free assay, competition with immobilised ligand | 100
SRSF protein kinase 1 (SRPK1, Homo sapiens, UniProt Q96SB4) | cell-free assay, competition with immobilised ligand | 62
Casein kinase I isoform alpha-like (CSNK1A1L, Homo sapiens, UniProt Q8N752) | cell-free assay, competition with immobilised ligand | 74
Phosphatidylinositol 4,5-bisphosphate 3-kinase catalytic subunit alpha isoform (PIK3CA, Homo sapiens, UniProt P42336, Q546K) | cell-free assay, competition with immobilised ligand | 92
Cyclin-dependent kinase 17 (CDK17, Homo sapiens, UniProt Q00537) | cell-free assay, competition with immobilised ligand | 88
Casein kinase II subunit alpha' (CSNK2A2, Homo sapiens, UniProt P19784) | cell-free assay, competition with immobilised ligand | 100
Non-receptor tyrosine-protein kinase TYK2, JH1 (TYK2, Homo sapiens, UniProt P29597) | cell-free assay, competition with immobilised ligand | 90
Activin receptor type-1B (ACVR1B, Homo sapiens, UniProt P36896) | cell-free assay, competition with immobilised ligand | 98
Ribosomal protein S6 kinase alpha-2, N-terminal kinase domain (RPS6KA2, Homo sapiens, UniProt Q15349) | cell-free assay, competition with immobilised ligand | 100
AP2-associated protein kinase 1 (AAK1, Homo sapiens, UniProt Q2M2I8) | binding | 88
Serine/threonine-protein kinase SIK2 (SIK2, Homo sapiens, UniProt Q9H0K1) | cell-free assay, competition with immobilised ligand | 100
Receptor-type tyrosine-protein kinase FLT3, autoinhibited (FLT3, Homo sapiens, UniProt P36888) | cell-free assay, competition with immobilised ligand | 90
Serine/threonine-protein kinase 32C (STK32C, Homo sapiens, UniProt Q86UX6) | cell-free assay, competition with immobilised ligand | 100
Ribosomal protein S6 kinase alpha-6, C-terminal kinase domain (RPS6KA6, Homo sapiens, UniProt Q9UK32) | cell-free assay, competition with immobilised ligand | 59
Dual specificity tyrosine-phosphorylation-regulated kinase 1B (DYRK1B, Homo sapiens, UniProt Q9Y463) | cell-free assay, competition with immobilised ligand | 100
Myosin light chain kinase 2, skeletal/cardiac muscle (MYLK2, Homo sapiens, UniProt Q9H1R3) | cell-free assay, competition with immobilised ligand | 81
Serine/threonine-protein kinase STK11 (STK11, Homo sapiens, UniProt Q15831) | cell-free assay, competition with immobilised ligand | 51
Aurora kinase C (AURKC, Homo sapiens, UniProt Q9UQB9) | cell-free assay, competition with immobilised ligand | 100
Phosphatidylinositol 4,5-bisphosphate 3-kinase catalytic subunit alpha isoform (PIK3CA, Homo sapiens, UniProt P42336, E542K) | cell-free assay, competition with immobilised ligand | 87
Myotonin-protein kinase (DMPK, Homo sapiens, UniProt Q09013) | cell-free assay, competition with immobilised ligand | 100
Mitogen-activated protein kinase kinase kinase 1 (MAP3K1, Homo sapiens, UniProt Q13233) | cell-free assay, competition with immobilised ligand | 66
Serine/threonine-protein kinase SBK1 (SBK1, Homo sapiens, UniProt Q52WX2) | cell-free assay, competition with immobilised ligand | 100
Serine/threonine-protein kinase D3 (PRKD3, Homo sapiens, UniProt O94806) | cell-free assay, competition with immobilised ligand | 100

Set 5
Structure (SMILES): COc1cc(C(=O)N2CCC(N3CCN(C)CC3)CC2)ccc1Nc1ncc2c(n1)N(C)c1ccccc1C(=O)N2C
target or system | assay | system | setting | inhibition
ACK (mouse) | probe labelling, KiNativ, refers to: Lys1 site peptide | brain tissue lysate (mouse) | 1 µM, together with: ADP acyl-phosphate probe | 17.6%
MLK1 (mouse) | probe labelling, KiNativ ADP probe | mouse brain lysate | 0.1 µM, LYS1 labelled site | -11.6%
CSK human | KiNativ profiling | human PBMC | 1 µM, activation loop site, together with: ATP acyl phosphate probe | -13.1%
human PBMC | probe labeling, inhibitor, KiNativ profiling | cell lysate | concentration not given, ATP site, together with: ADP acyl-phosphate probe 0.1 µM | -2%
SRPK1/SRPK2 (mouse) | probe labelling, inhibitor, KiNativ ActivX ADP probe | mouse brain lysate | 0.1 µM | 0.7%
MLKL (mouse) | probe labelling, KiNativ ADP probe | mouse brain lysate | 1 µM, LYS1 labelled site | 7.6%
MAP2K1 and MAP2K2 human | KiNativ profiling | human PBMC | 1 µM, LYS2 site, together with: ADP acyl phosphate probe | 6.4%
MAP/microtubule affinity-regulating kinase 3 (Mark3, Mus musculus, UniProt Q03141) | KiNativ profiling | mouse brain lysate | 0.1 µM, LYS1 site, together with: ATP acyl phosphate probe | 6.1%

Some of these lines once more (set 4):
target | assay | remaining binding [%]
Mitogen-activated protein kinase kinase kinase 1 (MAP3K1, Homo sapiens, UniProt Q13233) | cell-free assay, competition with immobilised ligand | 66
Dual specificity tyrosine-phosphorylation-regulated kinase 1B (DYRK1B, Homo sapiens, UniProt Q9Y463) | cell-free assay, competition with immobilised ligand | 100
Activin receptor type-1B (ACVR1B, Homo sapiens, UniProt P36896) | cell-free assay, competition with immobilised ligand | 98
Phosphatidylinositol 4,5-bisphosphate 3-kinase catalytic subunit alpha isoform (PIK3CA, Homo sapiens, UniProt P42336, E542K) | cell-free assay, competition with immobilised ligand | 87
Mitogen-activated protein kinase kinase kinase 15 (MAP3K15, Homo sapiens, UniProt Q6ZN16) | cell-free assay, competition with immobilised ligand | 100
